Measured values of several laboratories.
A part holds a random share of what one study measured. Changes are numbered by the printed parent chain.

Block 1
Target: ABI1, truncated, D143A, DHFR fusion (Arabidopsis thaliana)
Method: DHFR PCA, deep sequencing
Medium: yeast
Notes: methotrexate growth selection, single substitutions
With: (+)-ABA 1.4 µM
Reference: wild-type fitted maximum
Direction: higher = stronger binding
Endpoint: relative binding score
Starting sequence: PYL1, truncated, DHFR fusion (Arabidopsis thaliana); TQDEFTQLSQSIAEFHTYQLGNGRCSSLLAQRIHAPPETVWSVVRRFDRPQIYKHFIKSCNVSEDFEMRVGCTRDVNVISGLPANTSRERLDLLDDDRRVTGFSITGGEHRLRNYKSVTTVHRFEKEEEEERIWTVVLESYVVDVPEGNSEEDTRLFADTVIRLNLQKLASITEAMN
L164C: 71.4%
G107P: -6.45%
V62D: 7%
K126C: 76.6%
T106I: 99.5%
S171C: 36.6%
R74H: 2.48%
Q51H: 48.3%
Q10I: 22.7%
F5D: 21%
T101F: 77.7%
R24S: 34.2%
G148L: -4.86%
L94T: 5.21%
E14H: 8.94%
E4C: 46.7%
H110I: -2.99%

Block 2
Target: CCND1, cyclin fold, Cln2 fusion (human)
Method: yeast growth competition, sequencing
Medium: yeast
Notes: weak parent motif
Reference: not given
Direction: higher = stronger binding
Endpoint: normalised enrichment score
Starting sequence: E2F1 docking peptide (human); PPVKRRLDLETDH; partner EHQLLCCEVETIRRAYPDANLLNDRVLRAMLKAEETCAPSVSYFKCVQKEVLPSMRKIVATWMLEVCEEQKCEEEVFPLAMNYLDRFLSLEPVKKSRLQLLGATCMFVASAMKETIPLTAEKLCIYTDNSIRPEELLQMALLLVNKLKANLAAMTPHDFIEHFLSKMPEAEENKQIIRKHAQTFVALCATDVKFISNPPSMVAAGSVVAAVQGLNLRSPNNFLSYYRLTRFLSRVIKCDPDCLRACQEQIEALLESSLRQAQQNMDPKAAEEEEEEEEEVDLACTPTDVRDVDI
EPVKRRLDLETDH [P1E]: 0.799
PPVKRRLDLDTDH [E10D]: 1.1
PPVKARLDLETDH [R5A]: 0.307
PPVCRRLDLETDH [K4C]: 1.86
PPVKRRLDLELDH [T11L]: 1.13
DPVKRRLDLETDH [P1D]: 0.352
PPVKERLDLETDH [R5E]: 0.893
PPVKRRLDLETDF [H13F]: 0.0549
PPVKRRTDLETDH [L7T]: 0.454
PPVKRRLDLETGH [D12G]: 0.365
PPVKRRLDLETAH [D12A]: 0.759
PPVKRRLDLETFH [D12F]: 1.17
PPVKRRLDLEWDH [T11W]: 0.673
PPVERRLDLETDH [K4E]: 0.0149
PYVKRRLDLETDH [P2Y]: 0.11
PPPKRRLDLETDH [V3P]: 0.81
PMVKRRLDLETDH [P2M]: -0.154
PPVKRRLDLETDG [H13G]: 1.13
PPVKRRLDLETLH [D12L]: 0.181
PPVKKRLDLETDH [R5K]: 0.103
PPVKRILDLETDH [R6I]: 0.364
PPVKRRLDLETDA [H13A]: 0.572
PPVKRRLDLETDL [H13L]: 0.624
PPSKRRLDLETDH [V3S]: 0.306
PPVKRHLDLETDH [R6H]: 0.499

Block 3
Target: Prothrombin, mature alpha-thrombin (F2, Homo sapiens, UniProt P00734)
Method: aptamer microarray, sandwich
Form: DNA with 2'F-ANA
Medium: in vitro
Concentration: 200 nM
Notes: whole 15-mer aptamer, many near background
With: Cy3 exosite-II aptamer, 400 nM
Direction: higher = stronger binding
Endpoint: mean fluorescence intensity
Strand: GGTTGGTGTGGTTGG
2'F-ANA at 3 5 8 10 11 12 13 15: 59.3 a.u.
2'F-ANA at 1 2 6: 165 a.u.
2'F-ANA at 1 2 3 5 6 9 10 11 12 13 14 15: 59.9 a.u.
2'F-ANA at 1 2 6 8 9 12 13: 257 a.u.
2'F-ANA at 1 4 7 8 9 10 12 14 15: 47.6 a.u.
2'F-ANA at 1 3 7 9 11 13 14: 87 a.u.
2'F-ANA at 1 4 8 10 11 12 15: 57.4 a.u.
2'F-ANA at 1 2 3 6 8 9 10 12 13 15: 77.5 a.u.
2'F-ANA at 1 2 5 6 7 8 9 10 11 12 13 14: 64.4 a.u.
2'F-ANA at 3 4 5 9 10 14: 50.9 a.u.
2'F-ANA at 1 2 6 8 9 10: 53.8 a.u.
2'F-ANA at 2 3 4 5 6 7 11 13: 62.1 a.u.
2'F-ANA at 2 5 6 9 13 15: 50.1 a.u.
2'F-ANA at 9 11 13 15: 385 a.u.
2'F-ANA at 3 5 9 10 11 14 15: 52.1 a.u.
2'F-ANA at 2 4 6 7 8 9 10 14: 63.7 a.u.
2'F-ANA at 1 2 6 11 13 14: 94.1 a.u.
2'F-ANA at 1 5 6 11 13: 64.5 a.u.
2'F-ANA at 1 3 5 6 7 8 9 14: 59.6 a.u.
2'F-ANA at 2 3 4 5 7 8 11 13 14: 64.7 a.u.
2'F-ANA at 2 3 4 6 7 8 10 12 14 15: 169 a.u.
2'F-ANA at 5 7 8 9 15: 77.4 a.u.
2'F-ANA at 1 2 3 4 11 12 13 14 15: 106 a.u.
2'F-ANA at 3 4 5 6 7 8 11 12 13: 169 a.u.
2'F-ANA at 1 4 5 6 9 10 12 15: 47.2 a.u.

Block 4
Target: Interferon regulatory factor 5, full length, phosphomimetic (IRF5, Homo sapiens, UniProt Q13568-2, residues 1-514, S451D/S453D/S456D/S462D)
Method: protein-binding microarray
Form: double-stranded DNA, one strand shown
Medium: in vitro
Concentration: 940 nM top
Notes: 60-bp whole probe
With: salmon DNA 0.4 mg/ml
Reference: random background probes
Direction: higher = stronger binding
Endpoint: fitted relative affinity
All sequences stand within: GCCTAGCAC … GTCTTGATTCGCTTGACGCTGCTG
TCACCTTTACATTCCCCACTGTGCTAG: 1.66 z-score
CTAGATATCAGTTTCGATTAGTGCTAG: 8.38 z-score
GAAGGACTGGACACTGGGGACGTGCTA: -0.645 z-score
GACGGTTCCGGTTTTGGGACGTGCTAG: 2.68 z-score
TCACGGCTCTAAACTCATACTGTGCTA: 0.0829 z-score
TCATTTATATGCTATGTAACTGTGCTA: 0.222 z-score
TACGATTTCGGGACTGGAGACGTGCTA: -0.0257 z-score
TAAGGTTTCGGTTTCGGTTAGTGCTAG: 15.4 z-score
GACGAACTGCTACTGCTGACGTGCTAG: -0.65 z-score
TTAGGTATCGGACTGGGATAGTGCTAG: 3.33 z-score
GGATGAGTCACTTCTGGTGCTGTGCTA: -0.392 z-score
TCAACTCTGAACCTTCAGACTGTGCTA: -0.305 z-score
CACAGTTTGTAAATCTTTTTGTGCTAG: 0.0436 z-score
GACGCACTGGGGTTTCGGGACGTGCTA: 2.31 z-score
GACGGTTTCCTACAGCTGACGTGCTAG: 0.63 z-score
GACGAACTGGGTACTGGAGACGTGCTA: -0.141 z-score
GACGGTATCGGGACTGGTGACGTGCTA: 2.94 z-score
TTATGTCTCGGTCTCGGTTAGTGCTAG: 5.76 z-score
TTAGTTATCCTTCTCCTTTAGTGCTAG: 0.579 z-score

Repeated from above (block 2):
PPVCRRLDLETDH [K4C]: 1.86
PPVKRRLDLELDH [T11L]: 1.13
DPVKRRLDLETDH [P1D]: 0.352
PPVKERLDLETDH [R5E]: 0.893
PPVKRRLDLETDF [H13F]: 0.0549
PPVKRRTDLETDH [L7T]: 0.454
PPVKRRLDLETGH [D12G]: 0.365
PPVKRRLDLETAH [D12A]: 0.759
PPVKRRLDLETFH [D12F]: 1.17
PPVKRRLDLEWDH [T11W]: 0.673
PPVERRLDLETDH [K4E]: 0.0149
PYVKRRLDLETDH [P2Y]: 0.11
PPPKRRLDLETDH [V3P]: 0.81
